Measured values gathered from unrelated publications.
Compare with care: the assays were run in different laboratories.
Organism: Enterococcus faecium

SMILES | test | test system | conditions | MIC
CC[C@H](C)[C@H](NC(=O)[C@H](CC(C)C)NC(=O)[C@H](CCCNC(=N)N)NC(=O)[C@@H](N)CCCNC(=N)N)C(=O)N[C@@H](CC(C)C)C(=O)N[C@H](C(=O)N[C@@H](CCCCN)C(=O)N[C@H](C(=O)NCC(=O)N1CCC[C@H]1C(=O)N[C@H](C(=O)N[C@H](C(=O)N[C@@H](Cc1ccc(O)cc1)C(=O)N[C@@H](CCCCN)C(=O)N[C@@H](Cc1ccc(O)cc1)C(=O)N[C@@H](Cc1ccccc1)C(=O)N[C@@H](CCCCN)C(=O)N[C@@H](CCCCN)C(=O)N[C@@H](CCC(N)=O)C(=O)N[C@@H](CC(C)C)C(=O)N[C@@H](CCCCN)C(=O)N[C@@H](CCCCN)C(=O)N[C@@H](CC(C)C)C(N)=O)[C@@H](C)CC)[C@@H](C)CC)[C@@H](C)O)[C@@H](C)O |  | ATCC 51559, vancomycin-resistant, Mueller-Hinton broth | 24 h | 4 µM
Oc1c(Br)cc(Br)cc1-c1[nH]c(Br)c(Br)c1Br |  | ATCC 6569 |  | 8 µM
CCCCCCC#Cc1cncc(-c2nnc(SCc3ccc([N+](=O)[O-])o3)n2CCCN)c1 | broth microdilution | ATCC 51559 MDR VRE | 18 to 24 h, 37 °C | 64 µg/mL
CN[C@H](CC(C)C)C(=O)N[C@H]1C(=O)N[C@@H](CC(N)=O)C(=O)N[C@H]2C(=O)NC3C(=O)N[C@H](C(=O)N[C@H](C(=O)NCCC[N+](C)(C)C)c4cc(O)cc(O)c4-c4cc3ccc4O)[C@H](O)c3ccc(c(Cl)c3)Oc3cc2cc(c3OC2OC(CO)C(O)[C@H](O)[C@@H]2O[C@H]2CC(C)(NCc3ccc(-c4ccc(Cl)cc4)cc3)[C@H](O)[C@H](C)O2)Oc2ccc(cc2Cl)[C@H]1O (stereo partly drawn) |  | VanA VRE ATCC BAA-2317 | added: LTA 100 µg/mL and Mg2+ 100 µg/mL | 5 µg/mL
CC[C@H](C)[C@H](N)C(=O)N[C@@H](CCCNC(=N)N)C(=O)N[C@H](C(=O)N[C@@H](Cc1c[nH]c2ccccc12)C(=O)N[C@@H](Cc1c[nH]c2ccccc12)C(=O)N[C@@H](CCCCN)C(=O)N[C@H](C(=O)N[C@H](C(=O)N[C@@H](CCCNC(=N)N)C(=O)N[C@@H](CCCCN)C(=O)N[C@@H](Cc1c[nH]c2ccccc12)C(=O)N[C@@H](CCCCN)C(=O)N[C@@H](C)C(=O)N[C@H](C(=O)N[C@@H](Cc1c[nH]c2ccccc12)C(=O)N[C@@H](Cc1c[nH]cn1)C(N)=O)[C@@H](C)CC)C(C)C)[C@@H](C)CC)C(C)C | broth dilution | KCTC 13225 |  | 25 µM
CN[C@H](CC(C)C)C(=O)N[C@H]1C(=O)N[C@@H](CC(N)=O)C(=O)N[C@H]2C(=O)N[C@H]3C(=O)N[C@H](C(=O)N[C@H](C(=O)O)c4cc(O)cc(O)c4-c4cc3ccc4O)[C@H](O)c3ccc(c(Cl)c3)Oc3cc2cc(c3O[C@@H]2O[C@H](CO)[C@@H](O)[C@H](O)[C@H]2O[C@H]2C[C@](C)(N)[C@H](O)[C@H](C)O2)Oc2ccc(cc2Cl)[C@H]1O |  | VanB vancomycin-resistant | 18 h, 37 °C, 0.3 mM ZnSO4 LB | 64 µg/mL
CC(C)C[C@@H](NC(=O)CNC(=O)[C@@H](CCCCN)NC(=O)[C@@H](CC(C)C)NC(=O)[C@@H](CCCCN)NC(=O)[C@@H](CCCNC(=N)N)NC(=O)[C@@H](CC(C)C)NC(=O)[C@@H](CC(C)C)NC(=O)[C@@H](CCCNC(=N)N)NC(=O)[C@H](N)CCCNC(=N)N)C(=O)N[C@H](CCCCN)C(=O)N[C@H](CCCCN)C(=O)N[C@H](Cc1ccc(O)cc1)C(=O)N[C@H](CC(C)C)C(=O)N[C@H](Cc1ccc(O)cc1)C(=O)N[C@H](Cc1ccccc1)C(=O)N[C@H](CCCCN)C(=O)N[C@H](CC(C)C)C(=O)N[C@H](CCC(N)=O)C(=O)N[C@H](CC(C)C)C(=O)N[C@H](CC(C)C)C(=O)N[C@H](CCCCN)C(=O)N[C@H](CCCCN)C(N)=O |  | ATCC 51559, vancomycin-resistant, Mueller-Hinton broth | 24 h | 0.5 µM
CCCCCCC#Cc1cncc(-c2nnc(SCc3ccc([N+](=O)[O-])cc3)n2CCCN)c1 | broth microdilution | ATCC 51559 MDR VRE | 18 to 24 h, 37 °C | 8 µg/mL
CC[C@H](C)[C@H](NC(=O)[C@@H](NC(=O)[C@H](Cc1ccccc1)NC(=O)CNC(=O)[C@H](CCC(N)=O)NC(=O)[C@H](CCCCN)NC(=O)[C@H](C)N)C(C)C)C(=O)N[C@@H](Cc1ccc(O)cc1)C(=O)N[C@@H](CCCNC(=N)N)C(=O)N[C@H](C(=O)N[C@@H](CCCNC(=N)N)C(=O)N[C@H](C(=O)N[C@@H](CCCNC(=N)N)C(=O)N[C@@H](CCCNC(=N)N)C(=O)NCC(=O)N[C@@H](CC(N)=O)C(=O)N[C@@H](CCCNC(=N)N)C(=O)N[C@@H](CCCCN)C(N)=O)C(C)C)C(C)C | broth dilution | KCTC 13225 |  | > 100 µM
CCCCCCCCCC(=O)N[C@@H](Cc1c[nH]c2ccccc12)C(=O)N[C@H](CC(N)=O)C(=O)N[C@@H](CC(=O)O)C(=O)N[C@@H]1C(=O)NCC(=O)N[C@@H](CCCN)C(=O)N[C@@H](CC(=O)O)C(=O)N[C@H](C)C(=O)N[C@@H](CC(=O)O)C(=O)NCC(=O)N[C@H](CO)C(=O)N[C@@H]([C@H](C)CC(=O)O)C(=O)N[C@@H](CC(=O)c2ccccc2N)C(=O)O[C@@H]1C |  | resistant isolate | 16 h, added: Ca2+ 0 mM | > 128 µg/mL
Cc1ccc2[nH]c3c(c2c1)CCCC3NCCc1ccc(O)cc1 (stereo not drawn) | broth microdilution | BM4147 vancomycin-resistant |  | 16 µg/mL
CC(C)C[C@H](NC(=O)[C@@H](NC(=O)[C@H](CCCNC(=N)N)NC(=O)[C@H](CCC(N)=O)NC(=O)[C@H](Cc1ccccc1)NC(=O)[C@H](Cc1ccc(O)cc1)NC(=O)[C@H](CC(N)=O)NC(=O)[C@H](Cc1c[nH]c2ccccc12)NC(=O)[C@@H](NC(=O)[C@H](CCCNC(=N)N)NC(=O)[C@H](CCCCN)NC(=O)[C@@H](N)Cc1ccccc1)C(C)C)C(C)C)C(=O)N[C@H](C(=O)N[C@@H](CCCCN)C(=O)N[C@@H](CCCCN)C(=O)N[C@@H](Cc1ccc(O)cc1)C(=O)N[C@@H](C)C(N)=O)C(C)C | broth dilution | KCTC 13225 |  | 25 µM
CN[C@H](CC(C)C)C(=O)N[C@H]1C(=O)N[C@@H](CC(N)=O)C(=O)N[C@H]2C(=O)N[C@H]3C(=O)N[C@H](C(=O)N[C@H](C(=O)O)c4cc(O)cc(O)c4-c4cc3ccc4O)[C@H](O)c3ccc(c(Cl)c3)Oc3cc2cc(c3O[C@@H]2O[C@H](CO)[C@@H](O)[C@H](O)[C@H]2O[C@H]2C[C@](C)(N)[C@H](O)[C@H](C)O2)Oc2ccc(cc2Cl)[C@H]1O |  | vancomycin-susceptible |  | 0.5 µg/mL
CC[C@H](C)[C@H](NC(=O)[C@H](CC(C)C)NC(=O)[C@H](CCCNC(=N)N)NC(=O)[C@@H](N)CCCNC(=N)N)C(=O)N[C@@H](CCCNC(=N)N)C(=O)N[C@H](C(=O)N[C@@H](CC(C)C)C(=O)N[C@H](C(=O)NCC(=O)N1CCC[C@H]1C(=O)N[C@H](C(=O)N[C@H](C(=O)N[C@@H](Cc1ccc(O)cc1)C(=O)N[C@@H](CC(C)C)C(=O)N[C@@H](Cc1ccc(O)cc1)C(=O)N[C@@H](Cc1ccccc1)C(=O)N[C@@H](CCCCN)C(=O)N[C@@H](CC(C)C)C(=O)N[C@@H](CCC(N)=O)C(=O)N[C@@H](CC(C)C)C(=O)N[C@@H](CC(C)C)C(=O)N[C@@H](CCCCN)C(=O)N[C@@H](CCCCN)C(N)=O)[C@@H](C)CC)[C@@H](C)CC)[C@@H](C)O)[C@@H](C)O |  | ATCC 51559, vancomycin-resistant, Mueller-Hinton broth | 24 h | 32 µM
CN[C@H](CC(C)C)C(=O)N[C@H]1C(=O)N[C@@H](CC(N)=O)C(=O)N[C@H]2C(=O)N[C@H]3C(=O)N[C@H](C(=O)N[C@H](C(=O)O)c4cc(O)cc(O)c4-c4cc3ccc4O)[C@H](O)c3ccc(c(Cl)c3)Oc3cc2cc(c3O[C@@H]2O[C@H](CO)[C@@H](O)[C@H](O)[C@H]2O[C@H]2C[C@](C)(N)[C@H](O)[C@H](C)O2)Oc2ccc(cc2Cl)[C@H]1O |  | BAA-2317, vanA |  | 250 µg/mL

Repeated from above:
SMILES | test | test system | conditions | MIC
Cc1ccc2[nH]c3c(c2c1)CCCC3NCCc1ccc(O)cc1 (stereo not drawn) | broth microdilution | BM4147 vancomycin-resistant |  | 16 µg/mL
